Experimental data pooled from the literature.
Parts stem from different laboratories: compare values within a part only.

Series 1
Target: Histone acetyltransferase KAT6A, winged helix 1, GST fusion (KAT6A, Homo sapiens, UniProt Q92794, residues 1-85)
Method: protein binding microarray
Form: double-stranded DNA, one strand shown
Matrix: in vitro
Concentration: not given
Setting: 8-mer, flanks averaged, mean of 2 arrays, mostly near background
Relative to: not given
Reading: higher = stronger binding
Construct (chain): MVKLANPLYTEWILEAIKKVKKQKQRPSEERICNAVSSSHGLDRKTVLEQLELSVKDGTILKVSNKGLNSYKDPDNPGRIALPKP
Sequence | E-score
AGCAACAT | -0.11
CACGTCAC | -0.111
CAAGAGTC | -0.251
ACTTATGA | -0.24
CGATAGGA | 0.0377
GGATCCGA | 0.143
AGACGCCT | 0.0289
GACTTTCC | -0.119
GGGGTAAA | -0.0236
GGCTGTTA | 0.0983
ATCGTATA | -0.104
AGCACCAA | -0.187
ATTGTCGC | 0.0873
CAGGTTAA | -0.0938
ACGGCCTG | 0.304
CTTTGGAC | -0.0427
CGACCGGA | 0.145
CGGGGTGC | 0.299
ACCAACTG | -0.101
ACCCTCAA | -0.244
ATAGGTGG | -0.186
TCTTTGCA | -0.246

Series 2
Target: Ras GTPase-activating protein-binding protein 1, C-terminal RGG region (G3BP1, Homo sapiens, UniProt Q13283)
Sequence of UniProt Q13283 (whole entry, looked up): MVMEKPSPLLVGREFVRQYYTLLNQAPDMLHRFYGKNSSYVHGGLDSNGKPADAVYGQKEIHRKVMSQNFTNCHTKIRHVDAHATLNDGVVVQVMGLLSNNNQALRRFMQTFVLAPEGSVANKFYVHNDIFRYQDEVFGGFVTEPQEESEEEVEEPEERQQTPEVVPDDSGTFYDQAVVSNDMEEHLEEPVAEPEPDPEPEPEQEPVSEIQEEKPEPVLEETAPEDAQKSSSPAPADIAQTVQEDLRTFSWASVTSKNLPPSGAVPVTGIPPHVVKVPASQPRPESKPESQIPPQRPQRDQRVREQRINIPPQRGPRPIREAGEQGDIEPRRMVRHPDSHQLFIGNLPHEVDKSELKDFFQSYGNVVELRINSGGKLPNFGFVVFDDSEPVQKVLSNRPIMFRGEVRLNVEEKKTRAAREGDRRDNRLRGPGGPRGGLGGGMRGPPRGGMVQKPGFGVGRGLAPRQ
Method: RNA Bind-n-Seq
Form: RNA
Matrix: in vitro
Concentration: 1 µM
Setting: whole 134-nt RNA, ends assumed
Added: 150 mM KCl
Relative to: input library
Reading: higher = stronger binding
All sequences stand within: GGGAGUUCUACAGUCCGACGAUC … UGGAAUUCUCGGGUGUCAAGG
Sequence | log2 enrichment
UGGCCCUGGUGGCAUGCGGGGAGGAAGAGGUGGCCUCAUGGAUCGUAGUGGUCCCGGUGGAAUGUUCAGAGGUGGCCGUGGUGGAGACAG | 2.34
GCAGGAACUAAAAACAAAUGGAAAUGCUUCGGAUAGUGGCAGGGGUGGGGGUUGCUAAGGAAAGGGUGGGAUGGGAGUGGGUAAAGAGUU | 1.84
ACCAUGCAGGUGGGCAUCUUUGGGAAGUGGGGCAAGGGGGGGAUAGGGAGGGGGGUGACACUUUGGGAACAGGUGGUCCCAGGUCGUUUC | 2.04
CUCAAGUCCUGUGCUACACAUCGUAUGUACCGAAUCGGGUUUGGGUGGGAGGGAAAGUAUUAUGUUACGCCGUUCGGAUCUGCACUUCCA | 2.42
CAAGUCCUGUGCUACACAUCGUAUGUACCGAAUCGGUUUGGUUUGGAAAAAAAGGAAAGUAUUAUGUUACGCCGUUCGGAUCUGCACUUC | -1.8
CACAGACAACACGCACCCACACAGACACAGAGGGAAGGGGUUGGGUUGGGGACAGGGUGCACAGCAGGGCGGGGUAGGACCCCAGCCCCU | -0.305
UAACUUUAGAGGAGGAUCUGAUGGAUAUGGCAGUGGACGUGGAUUUGGGGAUGGCUAUAAUGGGUAUGGAGGAGUACCUGGAGGUGGCAA | -0.151
CACAGACAACACGCACCCACACAGACACAGAGGGAAGGGGUUGGGAUGGGGACAGGGUGCACUGCAGGGCGGGGUAGGACCCCAGCCCCU | -0.647
GCAGGAAGUAAAAACAAAUGGAAAUGCUUCGGAUAGUGCCAGGGGUGGGGGUUGCUAAGGAAAGGGUGGGAUGGGAGUGGGUAAAGAGUU | 0.746
UCCUGUGCUACACAUCGUAUGUACCGAAUCGGGGAAAAAAGGAAAAAAGGAAAAAAGGGAAAGUAUUAUGUUACGCCGUUCGGAUCUGCA | -1.24
CACAGACAACACGCACCCACACAGACACAGAGGGAAGGGGUUGGGAUGGGGAUAGGGUGCACAGCAGGGCGGGGUAGGACCCCAGCCCCU | 0.362
CAAGUCCUGUGCUACACAUCGUAUGUACCGAAUCGGAAAAAGGAAAAAGGUUUGGAAAGUAUUAUGUUACGCCGUUCGGAUCUGCACUUC | -2.08
AAGUCCUGUGCUACACAUCGUAUGUACCGAAUCGGUUUUUGGUUUGGUUUUUUUGGAAAGUAUUAUGUUACGCCGUUCGGAUCUGCACUU | -1.96
CAAGUCCUGUGCUACACAUCGUAUGUACCGAAUCGGGAGGGAAAGGGAAAAAGGGAAAGUAUUAUGUUACGCCGUUCGGAUCUGCACUUC | 1.34

Series 3
Target: RNA binding protein fox-1 homolog 2, RRM domain, GST-SBP tag (RBFOX2, Homo sapiens, UniProt O43251-10, residues 100-194)
Method: RNA Bind-n-Seq
Form: RNA
Matrix: in vitro
Concentration: 365 nM
Setting: natural RNA segment, single round, ends assumed
Relative to: no-protein control
Reading: higher = stronger binding
All sequences stand within: GGGAGUUCUACAGUCCGACGAUC … UGGAAUUCUCGGGUGCCAA
Construct (chain): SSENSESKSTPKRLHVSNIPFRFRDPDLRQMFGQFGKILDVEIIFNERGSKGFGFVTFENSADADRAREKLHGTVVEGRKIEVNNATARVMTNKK
Sequence | RBNS enrichment (R)
GUACUACCCAUUCAUCUAUUGUAGAGUAACCCUUGUGACUCAAUAUUACCAUAGUGCGAUGUUGUUUUGUGCUAUUUUGAACAAUUAAAAAGACUUUUUUUGAAAUAACC | 0.843
CUAGGAAGGAGAGGCCCUUGCCUGCUAUAACCAUGCCUAGAGUGCCUGUCCUCCAGUAUUGCACCUGUAGCCGGAGCUAGGGCCACCCCAGUGCAGGGGCAAAGCAAACC | 0.889
AAGAGUAACACCCACAUACAGAAUUUGUCACAUCCAGAGUAGCACUGUUCCUUAAUACUGGCAUAAUGCUUCCAGGAAGUUUUUCUUUUUUAUAUUUAAAAUGUUACUUU | 0.474
CCUCAGCCUGUGGGUGGCACGAGCAAGGACUGACAUCCGCACAGGGAGGAUUGUCUGUUUGGCUGACACAGCAGCAGCCCUUCCCACCCAGCCACCUUCCUCACAGGGAC | 0.747
GAAGUGAUUUCUCAAAAGUAAAGAUACUAUCCCAGAGGGUCGUGGGCAGAAAUGAAGGGAUUUCAUUUGAACUUAGAGCAUGAUGAAUUUGAGUGGGUGCACAGGAAGCA | 23.2
AACUCUAACUCGGAGACGUCUAGCUGGCAAUGUUUCUAAAACUUUCACUGGAUUUCUUUAGACAUUGAAGCAAACAUUUUUUUCUAAGAAUUGCUUCUCAGAUGAUGAUA | 0.337
GCAGGAGGACUCUUGCAGGGUUUUGUAAGCAGCGAUCUAGUUUCAUUAAAAAAAAAAGCUACACAGUAAACAGUCAGCUUCUUGUGUCUGUCUGCCAGAAACCCUGACUG | 0.487
UCUGUCGGUGAGGCCUUCUCUAAUGCAGUAUUCAUGAUGUUCUCAUUCAUGUUCUCAUUCAUGAUGUUCAUGAUCUUGAGAUCUAUCUGCUGCAGUUUUUUGACUCCUGU | 0.198
GUCUUUGGGUCACCUGCAUUCCAUAGCAUUGUGCUUGUACUUGUGCUCACACGGUUACCUAGGGUAGGCUGGGAGCCAUUGUGGGGUGCAGGGCCUGGCUUGUACUUGGU | 1.16
CUUUGUGGGACAGACAAACUUUUUAAAAAUUACUUUGUUGACUGACAAACCAGCUGCCAGCUUCUGGCUGCAAAACUGCCUGGUGAAAUUGACUUGCUUGGUUUCAUUCA | 0.357
UAUCCACAGUCUCUGCCAGUUGGUUUUAUUUGGAGGUUUGUGGGCUUUUUUUAAAAAAAAAAAGUCCUCAAAUCAGGAAGAAACAUCAAAGACUAUGUCCUAGUGGAGGG | 0.459
UACCUUUUCUUCACCGUUGUCGUUACAUUGUUAGAAAAGCAACAGGAAAAAAUCCAAUUCAUUUGACCUAAAAACAAGCCUCAAGUUUAAAACCAAGCUCACGUUUUUCU | 0.471

Series 4
Target: Interferon regulatory factor 7, full length, phosphomimetic (IRF7, Homo sapiens, UniProt Q92985, residues 1-503, S471D/S472D/S475D/S476D/S477D/S483D/S484D/S487D)
Method: protein-binding microarray
Form: double-stranded DNA, one strand shown
Matrix: in vitro
Concentration: 2200 nM top
Setting: 60-bp whole probe
Added: salmon DNA 0.4 mg/ml
Relative to: random background probes
Reading: higher = stronger binding
All sequences stand within: GCCTAGCAC … GTCTTGATTCGCTTGACGCTGCTG
Residues (chain): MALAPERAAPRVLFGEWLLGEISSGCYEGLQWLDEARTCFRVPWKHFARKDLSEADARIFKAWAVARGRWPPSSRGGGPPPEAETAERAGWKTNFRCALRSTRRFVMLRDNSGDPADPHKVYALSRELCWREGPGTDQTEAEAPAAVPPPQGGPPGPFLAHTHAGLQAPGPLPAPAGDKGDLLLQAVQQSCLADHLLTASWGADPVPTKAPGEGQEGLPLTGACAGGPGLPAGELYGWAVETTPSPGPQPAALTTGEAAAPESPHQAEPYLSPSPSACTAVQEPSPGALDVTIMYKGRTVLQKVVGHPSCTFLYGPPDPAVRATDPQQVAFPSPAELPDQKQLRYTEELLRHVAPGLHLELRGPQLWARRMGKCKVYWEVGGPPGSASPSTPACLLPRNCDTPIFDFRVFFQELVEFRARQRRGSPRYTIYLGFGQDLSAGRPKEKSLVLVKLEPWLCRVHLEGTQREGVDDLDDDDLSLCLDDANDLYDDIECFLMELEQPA
Sequence | fitted relative affinity [z-score]
TTAGGACTGGGAATGGGTTAGTGCTAG | -0.709
TATAGTTATTTTTATTAAAAGTGCTAG | -0.123
TCAGTATTTTTTCTGAAACTGTGCTAG | 0.524
TTAGATTTCAGTTTCGATGAGTGCTAG | 3.82
CTAGAACTGAGACTGGATTAGTGCTAG | -0.363
GATGGTTCCGGTTTCGGGACGTGCTAG | 5.99
GACGGTATCGACTATCGTGACGTGCTA | 0.1
GACGGACTCGGGACTGGGGACGTGCTA | -0.726
TTAGGTTCCCATTTCCTTTAGTGCTAG | 2.9
AACGGTCTCCTTCTCCTGACGTGCTAG | 0.938
GACGGTCTCGGTATCGAGACGTGCTAG | -0.159
CTCTATACCCATGTAGAGAGGTGCTAG | 0.41
TTAGGTTTCTTTCTCCTTTAGTGCTAG | 2.62
GACGAACTGGGGTTTCGCGACGTGCTA | 0.368
GACGGGATCGGGACTGGGGACGTGCTA | -0.856
CTGTGGGAGGCCCGCGGGAGGTGCTAG | -1.46
CACCCACTCTTTCCTCACCATGTGCTA | 1.98
TTAGGTTTCGACTTTCGGTCAGTGCTA | 7.78
GACGGTCACCTTTTCCTGACGTGCTAG | 1.1
GACGGACTGCGTCTCGGGACGTGCTAG | -0.506
TTAGGTTTCGGGAATGGGTTAGTGCTA | 2.2
GACGGTTTCGGGTTTCGGGGCGTGCTA | 9.98
TTAGAACTGGGGTTTCGGTTAGTGCTA | 3.16
TTAGGTATCGGTCCCGGTTAGTGCTAG | 0.25
GACGGTATCGGTATCGGAACGTGCTAG | 0.6
